# Published values collected from several papers.
# Numbered parts are unrelated; each lists some results of a single study. Positions count from the first letter of the parent shown.

# Sample 1
# Target: Sal-like protein 4, full length isoform B (SALL4, Homo sapiens, UniProt Q9UJQ4-2, residues 1-616)
# Technique: universal PBM
# Molecule type: double-stranded DNA, one strand shown
# Medium: in vitro
# Concentration: not given
# Setting: 8-mer, flanks averaged, mean of replicates
# Direction: higher = stronger binding
Strand,E-score
CGGAAGTA,-0.062
AACATTGC,-0.0333
AAACCGGT,-0.173
AAAAAGAC,0.226
CGGGTTAC,-0.023
GTTCGAAA,0.129
ACAAGACG,-0.0147
TGCTTGAA,0.112
GGGTAAGA,-0.045
GGGGCGGA,-0.201
CTCCAGAG,-0.184
AGATAGAC,0.0716
GGGTGTTA,-0.0173
ACAGTCTC,-0.0687
CTCAGAGA,-0.232
ACTCGAGT,0.0459
CGCTCCCC,-0.378
CTCGATTA,0.107
CCGAGTAG,-0.114
CAAAATTG,0.205
GACGGGCC,-0.335
CGTACATC,-0.135
ACTCGGCA,-0.177
GGCGTGCA,-0.171
CGCAGCGC,-0.203

# Sample 2
# Target: ABI1, truncated, D143A, DHFR fusion (Arabidopsis thaliana)
# Technique: DHFR PCA, deep sequencing
# Medium: yeast
# Setting: methotrexate growth selection, single substitutions
# Added: (+)-ABA 710 µM
# Relative to: wild-type fitted maximum
# Direction: higher = stronger binding
# Starting sequence: PYL1, truncated, DHFR fusion (Arabidopsis thaliana); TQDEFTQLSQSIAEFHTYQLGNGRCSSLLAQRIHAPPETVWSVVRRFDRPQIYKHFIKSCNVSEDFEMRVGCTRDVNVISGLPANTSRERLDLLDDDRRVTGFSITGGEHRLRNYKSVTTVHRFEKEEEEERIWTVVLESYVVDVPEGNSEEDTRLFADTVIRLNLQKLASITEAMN; partner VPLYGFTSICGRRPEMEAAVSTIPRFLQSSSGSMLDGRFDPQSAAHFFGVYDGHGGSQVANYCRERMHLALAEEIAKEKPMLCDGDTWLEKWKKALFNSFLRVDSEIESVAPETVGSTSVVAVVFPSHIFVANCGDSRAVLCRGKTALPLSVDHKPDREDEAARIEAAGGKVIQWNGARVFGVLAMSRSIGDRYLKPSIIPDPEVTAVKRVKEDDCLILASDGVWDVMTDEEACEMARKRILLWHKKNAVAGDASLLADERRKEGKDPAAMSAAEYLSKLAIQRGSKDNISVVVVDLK
Substitution,relative binding score
T154P,31.2%
E38Q,94.7%
E89H,21.5%
R155Y,70.7%
L166E,-18.1%
L169Y,3.32%
N177Q,92.8%
E38H,90.5%
T135M,14.3%
M176T,101%
T17D,91.9%

# Sample 3
# Target: RNA binding protein fox-1 homolog 2, RRM domain, GST-SBP tag (RBFOX2, Homo sapiens, UniProt O43251-10, residues 100-194)
# Technique: RNA Bind-n-Seq
# Molecule type: RNA
# Medium: in vitro
# Concentration: 365 nM
# Setting: natural RNA segment, single round, ends assumed
# Relative to: no-protein control
# Direction: higher = stronger binding
# Shared flanks, not repeated: GGGAGUUCUACAGUCCGACGAUC … UGGAAUUCUCGGGUGCCAA
# Construct (chain): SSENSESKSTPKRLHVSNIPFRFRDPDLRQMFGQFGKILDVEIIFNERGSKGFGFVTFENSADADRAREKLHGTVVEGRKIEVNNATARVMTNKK
Strand,RBNS enrichment (R)
CCAUUCUGUAGUCUUCAGGGUCAGCUGUUGAUAAAGGGGCAGGCUUGCGUUAUUGGCCUAGAUUUUGCUGCAGAUUAAAUCCUUUGAGGAUUCUCUUCUCUUUUACCAUU,2.53
GAAAGGCUGAACCUCAGGGCUCCACCCACGUCAUGGCCACGCCCCCUCUAUUACAAGAGUCCGCCUUGCCUGAGUCCUCCCUGCUGAGUAAAGCUACCCUCCCAGGUCCA,0.299
ACUGGCUCUUGGGAGAGCAAAAGGGACCUCCCGGACUCCUUAAAGCCCAGGCCGGCCAUCUUCUGCUGCUGGUACUUGGAUGGGCAAUGGUCACUGUGUUUCCACACAGC,0.559
AACAACAAUCCAGGUCACAUACCUGCCUUCCAGUCAGAAGAGCAAACGCCCUAAGCACUUCCUGGAACUGAAGAGCUUUAAGGACAACUAUAACACACUGGAGAGCACUC,0.343
AUGGUGAGCCUAGCCCUGGGACAUCAGGAGACUGGGCUCUGGCUCUGUUCGGCCUUUGGGUGUGUGGUGGAUUCUCCCUGGGCCUCAGUGUGCCCAUCUGUAAAGGGGCA,0.418
CUGAUGCGGCCACUCAUUCGGCUCCCCAGAAUUCCUAGACUGGGUUAAUAGGGUCAUAUUGUGAAUGUCUCACUACAAAAUGACUUGAGUCCAGUGAAAUCUCAUUAGGG,0.637
UUAGUGUGUAUAUAUGUCGCCCCUGUGAUGCAUAUAUACACAGGUAUUAAAUAUAUCGCUCUAUAUAAUAUUAUAUAUGUGUGUGGUAUCCAAGGAAUCUCUUCUAUUGA,0.573
ACUCAGCAGUGACCCUGUGUGCCAGGCCAGAUCCAAACUGAGAGGGAAGGUGUCGUUUUUACACUGCUAAUGACGAGAGUGGCUCUUUUUAGCUAGGCGAGUACAGACGG,0.369
GGACAUUAAGGCGAUUGGAGUUAUACUUGGAAAAGAAAGUUCUGGCCACAGUACAGAGCAUGGCCCGUUGAGCUGUUGGGGGGGUUAUUGCUGCAACCAAGGCUUGAGUG,1.07
UGAGAUAACAUUUACAUUGUCAACCUUUAUUGACUUUGUUUUUACAAUAAAAAAUAUUUUACAACUUACUUUCUGUUCUCUGUAUAUUGUGACUUGAGGAUUUACCCCCU,0.414
UAGAAACUAUUUAGUUUUGGUAGAUUUUUUUUCUGACAAUGUGACCAGACUGAAUUUCCUCAUAAAGAAAAAAUGGCGUGCCUUGUGUCUGUGUUUCUCUUUUCUCUGAA,1.47
UAAACAGGGAGUUAUGUGGUGCUUGUGGCGCUUUCAGAACCCAAAGAUUUGUAGUCUGGAAUCAUGUAGUCUCAUAUGCUGCACUUAUUUUUAUAUUUUUCAAUGCACUU,10.8

# Sample 4
# Target: Prothrombin, mature alpha-thrombin (F2, Homo sapiens, UniProt P00734)
# Technique: aptamer microarray, sandwich
# Molecule type: DNA with 2'F-ANA
# Medium: in vitro
# Concentration: 200 nM
# Setting: whole 15-mer aptamer, many near background
# Added: Cy3 exosite-II aptamer, 400 nM
# Direction: higher = stronger binding
# Strand: GGTTGGTGTGGTTGG
Modification,mean fluorescence intensity [a.u.]
2'F-ANA at 1 2 3 5 9 13 14,41.7
2'F-ANA at 2 3 5 6 7 8 9 10 13 14 15,52
2'F-ANA at 6 11 12 15,569
2'F-ANA at 1 2 3 4 5 6 7 10 11 12 13 14 15,71.5
2'F-ANA at 3 4 14 15,363
2'F-ANA at 1 2 3 6 8 10 11 12 13 14,67.4
2'F-ANA at 1 2 5 7 10 11 15,44.4
2'F-ANA at 1 2 3 6 8 9 10 11 12 15,73.7
2'F-ANA at 3 6 10 11 14 15,367
2'F-ANA at 1 2 3 4 6 7 9 12 13,176
2'F-ANA at 3 6 7 9 10 13 15,478
2'F-ANA at 3 6 7 10,557
2'F-ANA at 1 3 5 8 10 11 12 13 14,55.2
2'F-ANA at 1 2 5 6 7 8 10 12,51.1
2'F-ANA at 1 3 4 7 9 11 14,63
2'F-ANA at 1 2 5 8 9 10 11 12 13 15,50.9
2'F-ANA at 1 2 6 7 8 9 10,70.2
2'F-ANA at 1 5 6 9 11 12 13 14,51.7
2'F-ANA at 1 2 4 6 9 11 12,178
2'F-ANA at 4 7 8 10 13 15,76.7
2'F-ANA at 1 3 4 6 8 9 10 12 13 14 15,52.2
2'F-ANA at 3 6 7 13 14,559
2'F-ANA at 2 5 7 10 11 13,56.1

# Sample 5
# Target: CCNB2, cyclin fold, Cln2 fusion (human)
# Technique: yeast growth competition, sequencing
# Medium: yeast
# Setting: strong parent motif
# Relative to: not given
# Direction: higher = stronger binding
# Starting sequence: BRCA2 docking peptide (human); PSIKRNLLNEFDR
Substitution,normalised enrichment score
PSIKRNLLNSFDR [E10S],1.27
PSIKRNLLNEFDQ [R13Q],3.78
PSILRNLLNEFDR [K4L],0.436
PSINRNLLNEFDR [K4N],2.26
PSIKRNLLNEMDR [F11M],0.984
PKIKRNLLNEFDR [S2K],3.06
PSMKRNLLNEFDR [I3M],0.944
PSIKRYLLNEFDR [N6Y],0.906
PSIKRNLLNEFER [D12E],4.5
PSIKRNLLNEFDT [R13T],3.87
PSIKRNPLNEFDR [L7P],0.12
PSIKRNLLNEFKR [D12K],1.77
PSIKRNLLNRFDR [E10R],0.509
PSIKYNLLNEFDR [R5Y],0.266
TSIKRNLLNEFDR [P1T],3.69
PSIKRNLLNEFAR [D12A],3.25
PSIKRNLLTEFDR [N9T],3.51
PSIKRNDLNEFDR [L7D],0.0208

# Other studies, line by line
Molecule,target,assay,test system,conditions,how to read,measurement,result
"PhoQ, residues 284 288 289 292 302 303 SSLVEF","PhoP, residues 12 14 15 18 19 LHATL (Escherichia coli, UniProt P23836)","Sort-seq, item: YFP reporter",E. coli,"PhoQ-PhoP variant library, added: 10 µM Mg2+","relative to: high Mg2+ state, higher = stronger signaling",fold induction,5.2

# For quick reference, copied from above (sample 5):
Substitution,normalised enrichment score
PKIKRNLLNEFDR [S2K],3.06
PSMKRNLLNEFDR [I3M],0.944
PSIKRYLLNEFDR [N6Y],0.906
PSIKRNLLNEFER [D12E],4.5
PSIKRNLLNEFDT [R13T],3.87
PSIKRNPLNEFDR [L7P],0.12
PSIKRNLLNEFKR [D12K],1.77
PSIKRNLLNRFDR [E10R],0.509
PSIKYNLLNEFDR [R5Y],0.266
TSIKRNLLNEFDR [P1T],3.69
